Results gathered from unrelated publications.
Protocols differ between the studies behind these lines. “And” joins repeats or separate records; there may be more than shown. ± marks the error that the study gave.
Sequence of UniProt Q9BYP7 (whole entry, looked up): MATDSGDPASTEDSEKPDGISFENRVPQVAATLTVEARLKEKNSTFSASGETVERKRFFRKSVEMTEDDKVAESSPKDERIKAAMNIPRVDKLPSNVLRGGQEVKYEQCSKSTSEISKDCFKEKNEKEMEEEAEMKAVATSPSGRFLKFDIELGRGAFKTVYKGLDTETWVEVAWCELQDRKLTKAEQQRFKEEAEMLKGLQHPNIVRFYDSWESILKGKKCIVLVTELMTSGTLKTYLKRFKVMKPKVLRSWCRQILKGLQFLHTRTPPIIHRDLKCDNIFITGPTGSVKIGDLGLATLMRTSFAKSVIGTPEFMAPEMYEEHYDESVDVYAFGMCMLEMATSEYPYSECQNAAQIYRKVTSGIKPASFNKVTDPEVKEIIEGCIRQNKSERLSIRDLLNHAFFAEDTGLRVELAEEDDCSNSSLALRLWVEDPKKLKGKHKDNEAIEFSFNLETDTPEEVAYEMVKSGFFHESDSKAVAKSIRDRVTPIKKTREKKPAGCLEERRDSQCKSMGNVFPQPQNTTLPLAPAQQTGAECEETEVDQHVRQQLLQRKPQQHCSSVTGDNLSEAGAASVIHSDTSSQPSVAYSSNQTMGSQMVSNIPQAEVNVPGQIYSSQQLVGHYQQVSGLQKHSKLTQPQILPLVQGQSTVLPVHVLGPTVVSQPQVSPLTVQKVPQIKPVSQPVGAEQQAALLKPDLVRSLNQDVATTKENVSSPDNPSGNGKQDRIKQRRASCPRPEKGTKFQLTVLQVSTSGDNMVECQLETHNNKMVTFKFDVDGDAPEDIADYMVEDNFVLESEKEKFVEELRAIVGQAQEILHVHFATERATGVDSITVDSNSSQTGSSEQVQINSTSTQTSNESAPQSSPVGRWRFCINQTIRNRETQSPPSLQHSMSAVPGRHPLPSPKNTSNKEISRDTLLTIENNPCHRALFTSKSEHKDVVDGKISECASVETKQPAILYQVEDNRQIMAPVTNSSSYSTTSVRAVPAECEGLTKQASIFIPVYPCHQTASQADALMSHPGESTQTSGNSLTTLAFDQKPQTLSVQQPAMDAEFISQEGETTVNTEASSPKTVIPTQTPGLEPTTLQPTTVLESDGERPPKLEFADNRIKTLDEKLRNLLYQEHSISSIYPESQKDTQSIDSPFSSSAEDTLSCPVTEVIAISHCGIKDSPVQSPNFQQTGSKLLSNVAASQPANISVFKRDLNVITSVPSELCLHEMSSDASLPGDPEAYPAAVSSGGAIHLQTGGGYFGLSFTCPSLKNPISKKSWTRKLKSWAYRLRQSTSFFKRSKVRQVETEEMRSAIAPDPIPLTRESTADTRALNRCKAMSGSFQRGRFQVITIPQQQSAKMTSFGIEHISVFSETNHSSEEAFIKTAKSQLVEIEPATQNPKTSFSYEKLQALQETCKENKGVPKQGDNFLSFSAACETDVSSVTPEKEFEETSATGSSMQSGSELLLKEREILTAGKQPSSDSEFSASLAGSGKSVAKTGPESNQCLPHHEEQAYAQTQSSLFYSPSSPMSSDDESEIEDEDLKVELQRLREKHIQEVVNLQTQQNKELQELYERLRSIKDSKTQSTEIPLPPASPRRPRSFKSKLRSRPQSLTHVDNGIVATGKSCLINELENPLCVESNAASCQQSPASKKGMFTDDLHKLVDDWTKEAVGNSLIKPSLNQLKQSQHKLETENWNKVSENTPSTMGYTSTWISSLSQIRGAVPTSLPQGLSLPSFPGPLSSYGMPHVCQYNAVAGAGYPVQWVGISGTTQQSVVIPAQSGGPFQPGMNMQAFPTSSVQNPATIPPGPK
Sequence of UniProt Q9NQU5 (whole entry, looked up): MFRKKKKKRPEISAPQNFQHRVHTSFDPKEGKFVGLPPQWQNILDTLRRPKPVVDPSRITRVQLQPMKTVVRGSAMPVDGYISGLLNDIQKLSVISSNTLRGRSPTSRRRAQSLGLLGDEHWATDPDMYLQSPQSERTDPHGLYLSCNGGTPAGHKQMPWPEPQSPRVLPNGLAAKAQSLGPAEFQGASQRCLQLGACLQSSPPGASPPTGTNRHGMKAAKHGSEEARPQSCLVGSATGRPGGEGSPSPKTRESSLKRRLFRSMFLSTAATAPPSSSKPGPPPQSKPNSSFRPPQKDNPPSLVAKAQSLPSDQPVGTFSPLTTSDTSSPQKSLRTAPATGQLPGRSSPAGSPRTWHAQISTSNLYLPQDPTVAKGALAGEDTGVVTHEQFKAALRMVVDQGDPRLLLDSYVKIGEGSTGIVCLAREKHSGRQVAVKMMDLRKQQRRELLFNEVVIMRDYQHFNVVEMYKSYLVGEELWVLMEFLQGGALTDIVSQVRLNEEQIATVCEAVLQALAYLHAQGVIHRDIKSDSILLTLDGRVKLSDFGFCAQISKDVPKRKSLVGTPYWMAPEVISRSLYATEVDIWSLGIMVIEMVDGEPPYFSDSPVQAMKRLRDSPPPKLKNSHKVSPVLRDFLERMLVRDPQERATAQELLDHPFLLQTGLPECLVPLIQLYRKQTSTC
Sequence of UniProt Q9P2K8 (whole entry, looked up): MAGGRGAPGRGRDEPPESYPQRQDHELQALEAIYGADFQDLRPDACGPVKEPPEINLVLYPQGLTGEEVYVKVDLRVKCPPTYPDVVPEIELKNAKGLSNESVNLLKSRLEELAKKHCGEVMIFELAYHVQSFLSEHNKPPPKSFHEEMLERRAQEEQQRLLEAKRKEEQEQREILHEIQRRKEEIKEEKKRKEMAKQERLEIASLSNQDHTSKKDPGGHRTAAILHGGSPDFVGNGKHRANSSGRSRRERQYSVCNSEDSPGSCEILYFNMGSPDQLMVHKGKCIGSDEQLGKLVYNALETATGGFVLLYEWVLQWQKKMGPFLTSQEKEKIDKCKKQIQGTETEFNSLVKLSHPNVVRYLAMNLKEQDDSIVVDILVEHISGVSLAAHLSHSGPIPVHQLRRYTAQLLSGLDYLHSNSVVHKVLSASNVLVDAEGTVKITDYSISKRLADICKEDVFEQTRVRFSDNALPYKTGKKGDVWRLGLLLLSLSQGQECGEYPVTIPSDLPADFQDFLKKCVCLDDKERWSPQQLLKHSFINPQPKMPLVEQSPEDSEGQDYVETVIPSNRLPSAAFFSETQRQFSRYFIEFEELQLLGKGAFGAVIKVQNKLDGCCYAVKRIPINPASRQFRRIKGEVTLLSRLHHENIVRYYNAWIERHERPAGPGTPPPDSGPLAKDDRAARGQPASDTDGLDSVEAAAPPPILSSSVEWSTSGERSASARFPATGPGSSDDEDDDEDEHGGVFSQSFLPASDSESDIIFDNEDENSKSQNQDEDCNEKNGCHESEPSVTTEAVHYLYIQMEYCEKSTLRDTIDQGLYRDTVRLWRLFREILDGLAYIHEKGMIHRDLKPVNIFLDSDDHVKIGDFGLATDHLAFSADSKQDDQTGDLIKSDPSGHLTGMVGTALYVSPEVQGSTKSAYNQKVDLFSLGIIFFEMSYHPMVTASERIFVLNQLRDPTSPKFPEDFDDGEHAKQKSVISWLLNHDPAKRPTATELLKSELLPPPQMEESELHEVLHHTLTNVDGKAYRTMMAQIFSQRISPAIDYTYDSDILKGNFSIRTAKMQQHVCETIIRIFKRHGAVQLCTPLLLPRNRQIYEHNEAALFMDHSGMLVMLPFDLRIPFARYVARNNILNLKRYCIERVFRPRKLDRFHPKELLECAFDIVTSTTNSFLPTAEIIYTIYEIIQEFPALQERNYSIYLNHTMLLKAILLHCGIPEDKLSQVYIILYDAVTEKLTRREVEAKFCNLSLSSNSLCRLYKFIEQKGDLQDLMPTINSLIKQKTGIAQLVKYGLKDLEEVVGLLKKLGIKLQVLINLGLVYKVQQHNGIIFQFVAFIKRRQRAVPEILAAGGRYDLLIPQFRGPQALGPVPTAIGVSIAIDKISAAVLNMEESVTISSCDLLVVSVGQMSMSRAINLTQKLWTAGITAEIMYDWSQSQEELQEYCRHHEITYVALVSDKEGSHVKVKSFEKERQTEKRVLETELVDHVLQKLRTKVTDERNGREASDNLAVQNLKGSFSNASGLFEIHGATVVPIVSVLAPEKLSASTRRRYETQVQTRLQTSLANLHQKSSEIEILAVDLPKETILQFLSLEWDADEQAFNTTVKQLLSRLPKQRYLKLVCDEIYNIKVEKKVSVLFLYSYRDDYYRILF

| SMILES | target or system | assay | system | setting | scale | quantity | result |
| --- | --- | --- | --- | --- | --- | --- | --- |
| CC(C)=CCC/C(C)=C\CCn1cc(CC(P(=O)(O)O)P(=O)(O)O)nn1 |  |  | CD-1 mice | intravenous, 0.3 mg/kg, 24 h |  | biliary excretion of dose | not detected |
| CC(C)C[C@H](NC(=O)[C@H](Cc1ccc(O)cc1)NC(=O)[C@H](Cc1c[nH]cn1)NC(=O)[C@H](CCCCN)NC(=O)[C@H](CC(C)C)NC(=O)[C@H](C)NC(=O)[C@H](CC(C)C)NC(=O)[C@H](CCCCN)NC(=O)CNC(=O)[C@@H](NC(=O)[C@@H](NC(=O)[C@H](CCCCN)NC(=O)[C@@H](NC(=O)[C@H](CCC(=O)O)NC(=O)[C@H](C)NC(=O)[C@H](CCCCN)NC(=O)[C@H](CCCCN)NC(=O)[C@H](CC(C)C)NC(=O)[C@H](CC(C)C)NC(=O)[C@@H](NC(=O)[C@H](CCCNC(=N)N)NC(=O)[C@H](Cc1c[nH]c2ccccc12)NC(=O)CN)[C@@H](C)O)C(C)C)[C@@H](C)O)C(C)C)C(N)=O |  |  | zebrafish embryos 28 hpf, E3 medium | 24 h |  | chronic toxic concentration | 25 µM |
| O=C(c1cc(Cc2n[nH]c(=O)c3ccccc23)ccc1F)N1CC(CNC2CC2)C1 |  |  | female CD-1 mouse, plasma | intravenous, 20 mg/kg |  | AUC(0-inf) | 3030 ng·h/mL |
| CSCC[C@H](NC(=O)[C@@H](NC(=O)[C@H](CC(C)C)NC(=O)[C@@H](NC(=O)[C@H](Cc1c[nH]cn1)NC(=O)CCCCCNC(=O)[C@H](CCCNC(=N)N)NC(=O)[C@H](CCCNC(=N)N)NC(=O)[C@H](CCCNC(=N)N)NC(=O)[C@H](CCC(N)=O)NC(=O)[C@H](CCCNC(=N)N)NC(=O)[C@H](CCCNC(=N)N)NC(=O)[C@H](CCCCN)NC(=O)[C@H](CCCCN)NC(=O)[C@H](CCCNC(=N)N)NC(=O)CNC(=O)[C@@H](N)Cc1ccc(O)cc1)C(C)C)C(C)C)C(=O)N[C@@H](CS)C(=O)N[C@@H](C)C(=O)N[C@H](C(N)=O)[C@@H](C)O |  |  | C57BL/6J mice | Alzet osmotic pump, 3 mg/kg, 8 weeks | relative to: leukocytes | Mono | 7% and 1% |
| N#[11C]c1ccc(-c2csc(NN=C3CCCC3)n2)cc1 |  |  | C57BL/6 mice, male, thymus | intravenous, 3 MBq, 1 min |  | radioactivity uptake | 2.65 ± 0.53 %ID/g |
| CCCCCCCCCCCCCCCC(=O)N[C@@H](CCC(=O)NCCOCCOCCC(=O)NCCOCCOCCC(=O)NCCCC[C@H](NC(=O)[C@H](CC(=O)O)NC(=O)[C@H](CC(C)C)NC(=O)[C@H](Cc1ccc(O)cc1)NC(=O)[C@H](CCCCN)NC(=O)[C@H](CO)NC(=O)[C@H](Cc1ccc(O)cc1)NC(=O)[C@H](CC(=O)O)NC(=O)[C@H](CO)NC(=O)[C@@H](NC(=O)[C@H](Cc1ccccc1)NC(=O)[C@@H](NC(=O)CNC(=O)[C@H](CCC(N)=O)NC(=O)[C@@H](CO)NC(=O)[C@@H](N)Cc1c[nH]cn1)[C@@H](C)O)[C@@H](C)O)C(=O)N[C@@H](CCCNC(=N)N)C(=O)N[C@@H](CCCNC(=N)N)C(=O)N[C@@H](C)C(=O)N[C@@H](CCC(N)=O)C(=O)N[C@@H](CC(=O)O)C(=O)N[C@@H](Cc1ccccc1)C(=O)N[C@H](C(=O)N[C@@H](CCC(N)=O)C(=O)N[C@@H](Cc1c[nH]c2ccccc12)C(=O)N[C@@H](CC(C)C)C(=O)N[C@@H](CC(C)C)C(=O)N[C@@H](CC(N)=O)C(=O)N[C@H](C(=O)NCC(=O)NCC(=O)N1CCC[C@H]1C(=O)N[C@@H](CO)C(=O)N[C@@H](CO)C(=O)NCC(=O)N[C@@H](C)C(=O)N1CCC[C@H]1C(=O)N1CCC[C@H]1C(=O)N1CCC[C@H]1C(=O)N[C@@H](CO)C(N)=O)[C@@H](C)O)C(C)C)C(=O)O |  |  | Sprague-Dawley rat, female | subcutaneous, 20 µg/kg once daily, 14 days |  | total bilirubin | 0.9 ± 0.5 µmol/L |
| COc1cnc2cccc(N3CCc4c(cc(Cn5ccnc5)cc4-c4cn(C)nc4C(F)(F)F)C3=O)c2c1 |  |  | BALB/c nude mice, MV4-11 xenograft | intraperitoneal, 100 mg/kg, day 28 |  | body weight | 25.6 g and 22.4 g and 22.1 g and 22.2 g and 24.8 g |
| CSCC[C@H](N)C(=O)N[C@@H](C)C(=O)N[C@@H](Cc1c[nH]c2ccccc12)C(=O)N[C@@H](Cc1c[nH]cn1)C(=O)N[C@@H](CC(=O)O)C(=O)N[C@@H](CC(=O)O)C(=O)N[C@@H](CCC(=O)O)C(=O)N[C@@H](CCC(=O)O)C(=O)N[C@@H](Cc1ccccc1)C(=O)N[C@@H](C)C(=O)N[C@@H](CCCNC(=N)N)C(=O)N[C@@H](CCCNC(=N)N)C(=O)N[C@@H](CCCNC(=N)N)C(=O)N[C@@H](CCCNC(=N)N)C(=O)NCCCCCC(=O)NCCCCC(NC(=O)CCCCCNC(=O)[C@H](CCCNC(=N)N)NC(=O)[C@H](CCCNC(=N)N)NC(=O)[C@H](CCCNC(=N)N)NC(=O)[C@H](CCCNC(=N)N)NC(=O)[C@H](C)NC(=O)[C@H](Cc1ccccc1)NC(=O)[C@H](CCC(=O)O)NC(=O)[C@H](CCC(=O)O)NC(=O)[C@H](CC(=O)O)NC(=O)[C@H](CC(=O)O)NC(=O)[C@H](Cc1c[nH]cn1)NC(=O)[C@H](Cc1c[nH]c2ccccc12)NC(=O)[C@H](C)NC(=O)[C@@H](N)CCSC)C(=O)NCCCCC(NC(=O)C(CCCCNC(=O)CCCCCNC(=O)[C@H](CCCNC(=N)N)NC(=O)[C@H](CCCNC(=N)N)NC(=O)[C@H](CCCNC(=N)N)NC(=O)[C@H](CCCNC(=N)N)NC(=O)[C@H](C)NC(=O)[C@H](Cc1ccccc1)NC(=O)[C@H](CCC(=O)O)NC(=O)[C@H](CCC(=O)O)NC(=O)[C@H](CC(=O)O)NC(=O)[C@H](CC(=O)O)NC(=O)[C@H](Cc1c[nH]cn1)NC(=O)[C@H](Cc1c[nH]c2ccccc12)NC(=O)[C@H](C)NC(=O)[C@@H](N)CCSC)NC(=O)CCCCCNC(=O)[C@H](CCCNC(=N)N)NC(=O)[C@H](CCCNC(=N)N)NC(=O)[C@H](CCCNC(=N)N)NC(=O)[C@H](CCCNC(=N)N)NC(=O)[C@H](C)NC(=O)[C@H](Cc1ccccc1)NC(=O)[C@H](CCC(=O)O)NC(=O)[C@H](CCC(=O)O)NC(=O)[C@H](CC(=O)O)NC(=O)[C@H](CC(=O)O)NC(=O)[C@H](Cc1c[nH]cn1)NC(=O)[C@H](Cc1c[nH]c2ccccc12)NC(=O)[C@H](C)NC(=O)[C@@H](N)CCSC)C(N)=O (stereo partly drawn) |  |  | C57BL/6 mouse female, spleen | dose not given, 3 h | relative to: total | mean tissue distribution | 0.75% |
| CCN(CC)CCOc1ccc(-c2nnn(Cc3ccc(OC)cc3)c2N)cc1 |  |  | human plasma | 120 min |  | remaining compound | 104% |
| O=C1NC2(CC2)COc2ncc(F)cc2[C@H]2COCCN2c2ccn3ncc1c3n2 |  |  | Sprague-Dawley rat, male, liver | oral, 20 mg/kg/day, 4 weeks, end of treatment |  | organ-to-body weight ratio | 3.56 ± 0.299% |
| COc1ccccc1-c1n[nH]c2nc(NC3CCN(C(=O)Cc4ccc(F)cc4F)CC3)ncc12 |  | bead binding, competition bead pull-down, measured: LINJ.29.2310 | Leishmania donovani extract | 10 µM | relative to: vehicle | relative abundance | 0.96 |
| CN(C)[C@H]1C[C@@]23CC[C@@]4(O2)C(=CC[C@]2(C)[C@@H](c5ccc6ccncc6c5)CC[C@H]24)C=C3[C@@H](O)[C@@H]1O | EIF2AK4 (Homo sapiens, UniProt Q9P2K8) | ATP probe labelling, inhibitor, KiNativ profiling |  | 1 µM |  | inhibition | 7.1% |
| CC[C@H](C)[C@H](N)C(=O)N[C@@H](CCCNC(=N)N)C(=O)N[C@H](C(=O)N[C@@H](Cc1c[nH]c2ccccc12)C(=O)N[C@@H](CCCCN)C(=O)N[C@@H](CCCCN)C(=O)N[C@H](C(=O)N[C@H](C(=O)N[C@@H](CCCNC(=N)N)C(=O)N[C@@H](CCCCN)C(=O)N[C@@H](Cc1c[nH]c2ccccc12)C(=O)N[C@@H](CCCCN)C(=O)N[C@@H](C)C(=O)N[C@H](C(=O)N[C@@H](Cc1c[nH]c2ccccc12)C(=O)N[C@@H](Cc1c[nH]cn1)C(N)=O)[C@@H](C)CC)C(C)C)[C@@H](C)CC)C(C)C |  | reversed-phase UPLC | C18 column, TFA |  |  | elution acetonitrile content | 44.7% |
| C=Cc1c(C)c2cc3nc(c(CC(=O)[O-])c4[n-]c(cc5nc(cc1[n-]2)C(C)=C5CC)c(C)c4C(=O)[O-])C(CCC(=O)[O-])C3C.[Cu+2].[Na+].[Na+].[Na+] (stereo not drawn) |  |  | Wistar rat, male | oral, 1000 mg/kg daily, 28 days |  | serum cholesterol | 38.8 ± 10.1 mg/dL |
| CS(C)(=O)=Nc1ccc(-c2ccc(-c3nc4cc(O[C@@H]5CO[C@H]6[C@@H]5OC[C@H]6O)[nH]c4cc3F)cc2)cc1 | PAK6 (Homo sapiens, UniProt Q9NQU5) | enzyme activity, inhibitor |  | 10 µM |  | inhibition | 0% |
| CC[C@H](C)[C@H](NC(=O)[C@H](CCCCN)NC(=O)CNC(=O)[C@H](CC(C)C)NC(=O)[C@H](Cc1ccccc1)NC(=O)[C@H](CCCCN)NC(=O)[C@H](CO)NC(=O)[C@H](Cc1ccccc1)NC(=O)[C@H](Cc1c[nH]c2ccccc12)NC(=O)[C@H](CCC(N)=O)NC(=O)[C@@H](NC(=O)[C@H](Cc1ccccc1)NC(=O)CCCCCNC(=O)CN1CCN(CC(=O)O)CCN(CC(=O)O)CCN(CC(=O)O)CC1)C(C)C)C(=O)N[C@@H](CCC(=O)O)C(=O)N1CCC[C@H]1C(=O)N[C@@H](CC(=O)O)C(=O)N[C@H](C(=O)N[C@@H](CO)C(=O)N[C@@H](CCC(N)=O)C(=O)N[C@H](C(=O)N[C@@H](CCC(N)=O)C(=O)N[C@@H](CC(=O)O)C(=O)N1CCC[C@H]1C(=O)N[C@@H](CC(N)=O)C(=O)N[C@@H](CC(=O)O)C(=O)N[C@@H](CCC(N)=O)C(=O)N[C@@H](Cc1ccc(O)cc1)C(=O)N[C@@H](CCC(=O)O)C(=O)N1CCC[C@H]1C(=O)N[C@@H](Cc1ccccc1)C(=O)O)C(C)C)C(C)C [copper-64 labelled] |  | dynamic PET | mouse, CT26 tumour, checkpoint inhibitor-treated, tumour | intravenous, 100 µCi/mouse, 2340 s |  | SUVmean | 5.34 SUV |
| Cc1nc2cccc(OCC(C)(C)C(=O)NC(C)C)c2c(N)c1C(=O)[O-].[Na+] | Salmonella typhimurium |  | TA1535 | 0.13 mg per plate, without S9, plate incorporation |  | revertant colonies per plate | 16 ± 2 |
| Cn1nc(NS(C)(=O)=O)c2c(Cl)ccc(-n3c([C@H](Cc4cc(F)cc(F)c4)NC(=O)Cn4nc(C(F)F)c5c4C(F)(F)[C@@H]4C[C@H]54)nc4nc(OCCC(F)(F)F)ccc4c3=O)c21 |  |  | human, plasma | oral, 200 mg single dose, powder in bottle, geometric mean |  | half-life | 61.6 h |
| CCCCCCCCCCCC(=O)C(C)C(=O)N1CCC[C@H]1C(=O)NC(C)(C)C(=O)NC(C)(C)C(=O)NC(C)(C)C(=O)N[C@](C)(CC)C(=O)NCCC(=O)N[C@@H](C)C(=O)N[C@](C)(CC)C(=O)N[C@@H](C)C(=O)N[C@@H](CC(C)C)C(=O)N[C@](C)(CC)C(=O)NCCC(=O)N[C@@H](C)C(=O)N[C@](C)(CC)C(=O)NCCC(=O)N[C@@H](C)C(=O)NC(C)(C)C(=O)NC(C)(C)C(=O)NC(C)(C)C(=O)N[C@@H](C)C(=O)N[C@@H](CC(=O)O)C(=O)O (stereo partly drawn) |  | LC-MS | 50% pooled human serum | 40 µM, 60 min, pH 7.5, 37 °C | relative to: 0 h | remaining intact peptide | 46.5% and 48.7% |
| CCc1nn(C)c2nc(-c3ccc(C(=O)O)cc3)nc(NCc3ccccc3)c12 |  |  | male CD-1 mouse, plasma | oral, 10 mg/kg, 1 h |  | concentration | 779 ng/mL |
| O=C1NC(=O)c2c1c1cc(F)c[n+]3c1c1c2c2cc(O)ccc2[n]1[Ru-4]312([N]=C=S)[S+]3CC[S+]1CC[S+]2CC3 (stereo not drawn) | WNK3 (Homo sapiens, UniProt Q9BYP7) | enzyme activity |  | 100 nM, human enzyme, with: 10 µM ATP | relative to: untreated | remaining activity | 95% |

A few entries again:
| SMILES | target or system | assay | system | setting | scale | quantity | result |
| --- | --- | --- | --- | --- | --- | --- | --- |
| COc1ccccc1-c1n[nH]c2nc(NC3CCN(C(=O)Cc4ccc(F)cc4F)CC3)ncc12 |  | bead binding, competition bead pull-down, measured: LINJ.29.2310 | Leishmania donovani extract | 10 µM | relative to: vehicle | relative abundance | 0.96 |
| CN(C)[C@H]1C[C@@]23CC[C@@]4(O2)C(=CC[C@]2(C)[C@@H](c5ccc6ccncc6c5)CC[C@H]24)C=C3[C@@H](O)[C@@H]1O | EIF2AK4 (Homo sapiens, UniProt Q9P2K8) | ATP probe labelling, inhibitor, KiNativ profiling |  | 1 µM |  | inhibition | 7.1% |
| CC[C@H](C)[C@H](N)C(=O)N[C@@H](CCCNC(=N)N)C(=O)N[C@H](C(=O)N[C@@H](Cc1c[nH]c2ccccc12)C(=O)N[C@@H](CCCCN)C(=O)N[C@@H](CCCCN)C(=O)N[C@H](C(=O)N[C@H](C(=O)N[C@@H](CCCNC(=N)N)C(=O)N[C@@H](CCCCN)C(=O)N[C@@H](Cc1c[nH]c2ccccc12)C(=O)N[C@@H](CCCCN)C(=O)N[C@@H](C)C(=O)N[C@H](C(=O)N[C@@H](Cc1c[nH]c2ccccc12)C(=O)N[C@@H](Cc1c[nH]cn1)C(N)=O)[C@@H](C)CC)C(C)C)[C@@H](C)CC)C(C)C |  | reversed-phase UPLC | C18 column, TFA |  |  | elution acetonitrile content | 44.7% |
